Measured values collected from several papers.
Each numbered part is a random draw from the data of one study; scales do not carry over between parts. Changes are numbered by the printed parent chain.

Set 1
Target: TAR DNA-binding protein 43, full length, His tag (TARDBP, Homo sapiens, UniProt Q13148, residues 1-414)
Technique: RNA Bind-n-Seq
Form: RNA
Sample: in vitro
Concentration: 20 nM
Setting: 6-mer, flanks averaged, single round
With: 150 mM LiCl
Baseline: input library
Reading: higher = stronger binding
Strand	6-mer enrichment (R)
CACUGG	0.894
CCACUC	0.899
AUAUUA	0.991
GGUUGA	1.18
CUCAUC	0.836
CCAGAU	0.845
GUGUAU	1.56
CAUAUA	0.917
AAAGCA	0.809
UCCUAA	0.849
GCCGCU	0.944
CACGGA	0.87

Set 2
Target: CCND3, cyclin fold, Cln2 fusion (human)
Technique: yeast growth competition, sequencing
Sample: yeast
Setting: weak parent motif
Baseline: not given
Reading: higher = stronger binding
Starting sequence: RB1 docking peptide (human); PKPLKKLRFDIEG; partner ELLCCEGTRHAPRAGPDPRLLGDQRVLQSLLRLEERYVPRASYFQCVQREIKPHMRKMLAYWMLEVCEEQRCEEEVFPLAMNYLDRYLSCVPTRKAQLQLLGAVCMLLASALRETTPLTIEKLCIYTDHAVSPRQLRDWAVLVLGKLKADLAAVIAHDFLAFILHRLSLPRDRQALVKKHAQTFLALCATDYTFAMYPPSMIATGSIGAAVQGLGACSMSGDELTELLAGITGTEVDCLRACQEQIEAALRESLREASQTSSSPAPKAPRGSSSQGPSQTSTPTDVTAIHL
Variant	normalised enrichment score
K6A	0.175
L4I	0.288
K2F	0.127
I11L	0.156
E12N	0.223
L4E	0.16
D10G	0.291
K2T	0.0519
K2H	0.0791
I11G	0.083
L4T	0.0795
P1D	0.252
R8K	0.108
K6V	0.0559
P1E	0.0708
K2S	0.0885
G13F	0.12

Set 3
Target: Ras GTPase-activating protein-binding protein 1, RRM domain (G3BP1, Homo sapiens, UniProt Q13283)
UniProt Q13283, sequence (whole entry, looked up): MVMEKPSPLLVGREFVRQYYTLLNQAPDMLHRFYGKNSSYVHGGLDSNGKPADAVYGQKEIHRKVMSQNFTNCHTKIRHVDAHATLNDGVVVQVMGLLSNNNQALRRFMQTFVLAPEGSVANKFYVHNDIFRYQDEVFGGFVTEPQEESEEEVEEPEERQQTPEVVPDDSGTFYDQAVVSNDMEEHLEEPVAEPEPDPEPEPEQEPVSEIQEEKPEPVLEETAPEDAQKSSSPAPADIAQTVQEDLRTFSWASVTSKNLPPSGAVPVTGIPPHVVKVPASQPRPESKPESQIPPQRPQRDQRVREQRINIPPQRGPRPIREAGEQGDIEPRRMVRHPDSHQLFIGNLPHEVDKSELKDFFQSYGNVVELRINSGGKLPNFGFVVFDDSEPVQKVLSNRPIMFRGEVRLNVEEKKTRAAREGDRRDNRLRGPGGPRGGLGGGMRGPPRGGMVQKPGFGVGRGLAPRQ
Technique: RNA Bind-n-Seq
Form: RNA
Sample: in vitro
Concentration: 1 µM
Setting: whole 134-nt RNA, ends assumed
With: 150 mM KCl
Baseline: input library
Reading: higher = stronger binding
Shared flanks, not repeated: GGGAGUUCUACAGUCCGACGAUC … UGGAAUUCUCGGGUGUCAAGG
Strand	log2 enrichment
CUCAAGUCCUGUGCUACACAUCGUAUGUACCGAAUCGGUUUUUUUGGAGGAGGAAAGUAUUAUGUUACGCCGUUCGGAUCUGCACUUCCA	-0.125
CCUCAAGUCCUGUGCUACACAUCGUAUGUACCGAAUCGGGCCGGGCCGGCCGGAAAGUAUUAUGUUACGCCGUUCGGAUCUGCACUUCCA	-0.357
UGUGCUACACAUCGUAUGUACCGAAUCGGGGUUUUUUUGGGGUUUUUUUGGGUUUUUUUGGGGAAAGUAUUAUGUUACGCCGUUCGGAUC	-0.21
CCUGUGCUACACAUCGUAUGUACCGAAUCGGAAAAAAGGGAAAAAAGGGGAAAAAAGGGGAAAGUAUUAUGUUACGCCGUUCGGAUCUGC	-0.00793
GCAGGAAGUAAAAACAAAUGGAAAUGCUUCGGAUAGUGGCAGGGGUGGGGGUUGCUAAGGAAAGGGUGGGAUGGGCGUGGGUAAAGAGUU	0.74
CCUCAAGUCCUGUGCUACACAUCGUAUGUACCGAAUCGGGGAGGGAGGGAGGGAAAGUAUUAUGUUACGCCGUUCGGAUCUGCACUUCCA	1.26
CUGUGCUACACAUCGUAUGUACCGAAUCGGUUUUUUUGGGUUUUUUUGGGUUUUUUUGGGGAAAGUAUUAUGUUACGCCGUUCGGAUCUG	-0.226
ACCAUGCAGGUGGGCAUCUUUGGGAAGUGGGGCAAGGGGGGGAUAGGGAGGGGGGUAACACUUUGGGAACAGGUGGUCCCUGGUCGUUUC	0.639

Set 4
Target: Phosphate system positive regulatory protein PHO4, full length, GST-tagged (PHO4, Saccharomyces cerevisiae, UniProt P07270, residues 1-312)
Technique: competition protein-binding microarray
Form: double-stranded DNA, one strand shown
Sample: in vitro
Concentration: 2 µM
Setting: whole 60-bp probe, lowest competitor level
With: Cbf1 competitor, 0.05 µM
Reading: higher = stronger binding
Shared flanks, not repeated: … GTCTTGATTCGCTTGACGCTGCTG
Construct (chain): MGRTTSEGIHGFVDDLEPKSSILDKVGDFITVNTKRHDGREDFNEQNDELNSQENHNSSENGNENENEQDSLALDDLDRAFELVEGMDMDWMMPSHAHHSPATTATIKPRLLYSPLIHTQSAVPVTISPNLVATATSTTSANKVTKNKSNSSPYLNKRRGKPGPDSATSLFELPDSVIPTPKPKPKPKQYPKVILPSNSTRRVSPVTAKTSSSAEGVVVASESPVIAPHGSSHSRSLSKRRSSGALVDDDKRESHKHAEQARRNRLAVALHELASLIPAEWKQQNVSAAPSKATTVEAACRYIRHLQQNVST
Strand	fluorescence intensity [a.u.]
AAAGCGGTAATTTGTCACACCACTTCACATATCTAT	4610
CATACCCAACCTTGCCCAGTGGGTGAAGATATTTGT	4250
CTTTCCCGATCTTGAGATGTGGGTGTAGCACATTTG	4890
CTCTTCCTCAAGCGTCACCTGATCTCTTCTTTCCCA	3620
CTAACGAAGGTTTTTCACGTGTCATACAAGCCAAGT	12700
GTAACTTGGCGCTCTCTCGTGCCAGTGGTGATTTTG	7340
CTTTCCCGATCTTGCAACGTGGGTGTAGCACATTTG	14500
CTATTGATATGCTTGCATGTGGACGCAAGCAGACGC	8000
AAATTACTAAGTTGTGTTGTGGGTGACGCCGTATGA	5100
CTAACGAAGGTTTGTCACCATACTTACAAGCCAAGT	3800
AGATTGCTTTTCTCACGCCTGTTTTACGTCTCCAGG	3570
CATACCCAACCTTTTCACGTGAGTTAAGATATTTGT	12500
CAAAAGAAAAAGTTTGACGTGATGGATCCATCTAAC	3250

Set 5
Target: Histone acetyltransferase KAT6A, winged helix 1, GST fusion (KAT6A, Homo sapiens, UniProt Q92794, residues 1-85)
Technique: protein binding microarray
Form: double-stranded DNA, one strand shown
Sample: in vitro
Concentration: not given
Setting: 8-mer, flanks averaged, mean of 2 arrays, mostly near background
Baseline: not given
Reading: higher = stronger binding
Residues (chain): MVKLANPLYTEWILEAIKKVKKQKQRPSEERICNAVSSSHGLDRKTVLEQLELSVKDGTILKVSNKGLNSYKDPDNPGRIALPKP
Strand	E-score
CGTGATTA	-0.0397
AATACTCT	-0.165
GTAGGTAA	-0.151
CCGCGAGA	0.281
GCATTGGC	0.0766
GGAGGAAA	-0.0279
CACCTCTA	0.00713
GAGGTGAC	-0.0309
CAATTCCC	-0.142
ACTAGGCG	0.229
TAGCCGAA	0.038
CCGGGCCA	0.232
ATCTTGCG	0.0679
ATTAGGTG	-0.138
CAATTCCG	0.215
ATGCACGA	-0.0753
ACTACACC	-0.00877
TAAATCCA	-0.154
ATAATGAG	-0.221
GGCCGCGA	0.425
CAAAGTCG	-0.0512
TGGCTAAA	0.00378
ACGCCTAA	-0.041
CGGACGAC	0.166
AACCTTAT	-0.08

Set 6
Target: Prothrombin, mature alpha-thrombin (F2, Homo sapiens, UniProt P00734)
Technique: aptamer microarray, sandwich
Form: DNA with 2'F-ANA
Sample: in vitro
Concentration: 200 nM
Setting: whole 15-mer aptamer, many near background
With: Cy3 exosite-II aptamer, 400 nM
Reading: higher = stronger binding
Strand: GGTTGGTGTGGTTGG
Modification	mean fluorescence intensity [a.u.]
2'F-ANA at 2 3 4 6 7 8 9 10 12 13 15	213
2'F-ANA at 1 4 5 6 7 9 11 12	87.8
2'F-ANA at 3 6 9 10 12 13 15	507
2'F-ANA at 4 5 8 10 12 13 15	50.3
2'F-ANA at 1 2 6 9 12 14	58.6
2'F-ANA at 1 2 7 12 13 14 15	64.7
2'F-ANA at 4 6 7 8 9 10 11 13 14	62.9
2'F-ANA at 2 3 6 8 9 13	568
2'F-ANA at 2 3 4 5 6 8 9 11 13 15	61.5
2'F-ANA at 5 6 8 10 11 13 14 15	45.8
2'F-ANA at 2 6 9 10 11 13 14	107
2'F-ANA at 2 4 9 12 13 15	357
2'F-ANA at 4 5 7 8 9 11 13 14 15	47.7
2'F-ANA at 1 5 6 7 8 10 13 14 15	46.1
2'F-ANA at 1 2 7 8 10 11 12 14	48.4
2'F-ANA at 1 4 6 8 9 11 14	50
2'F-ANA at 2 3 4 6 7 9 10 14 15	163

Set 7
Target: Interferon regulatory factor 3, full length, phosphomimetic (IRF3, Homo sapiens, UniProt Q14653, residues 1-427, S386D/S396D/S398D/S402D/T404D/S405D)
Technique: protein-binding microarray
Form: double-stranded DNA, one strand shown
Sample: in vitro
Concentration: 2540 nM top
Setting: 60-bp whole probe
With: salmon DNA 0.4 mg/ml
Baseline: random background probes
Reading: higher = stronger binding
Shared flanks, not repeated: GCCTAGCAC … GTCTTGATTCGCTTGACGCTGCTG
Target sequence (chain): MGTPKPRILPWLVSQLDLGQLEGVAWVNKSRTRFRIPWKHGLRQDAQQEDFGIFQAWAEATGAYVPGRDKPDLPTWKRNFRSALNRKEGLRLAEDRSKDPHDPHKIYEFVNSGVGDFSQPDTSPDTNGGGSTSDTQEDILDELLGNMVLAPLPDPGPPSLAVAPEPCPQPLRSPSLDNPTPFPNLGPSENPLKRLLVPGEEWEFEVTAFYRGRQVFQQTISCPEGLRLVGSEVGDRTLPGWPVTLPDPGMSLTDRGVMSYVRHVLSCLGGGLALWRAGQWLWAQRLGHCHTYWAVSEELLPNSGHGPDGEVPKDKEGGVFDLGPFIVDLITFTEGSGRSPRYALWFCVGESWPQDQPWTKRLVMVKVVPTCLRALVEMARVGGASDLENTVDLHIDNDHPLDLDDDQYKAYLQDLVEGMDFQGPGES
Strand	fitted relative affinity [z-score]
GACGGACTGGGACTGGGGACGTGCTAG	-0.891
TTAGGACTGGACTTTCGGTGAGTGCTA	0.131
GGCGATATCGGGTTTCGAGACGTGCTA	0.93
TTAGATTTAAGTATCGATTAGTGCTAG	0.543
GACGGTTCCCTTTTCCTGATGTGCTAG	5.73
TTAGATTTCAGGTATCGATTAGTGCTA	1.09
GACGAACTGAGTCTCGACACGTGCTAG	-0.209
GACGGTATCCTTATCCTGATGTGCTAG	4.87
TTAGGGCTGGGTTTCGGTTAGTGCTAG	2.96
GACGGTTTCCTTCTCCTGTCGTGCTAG	10.4
GACGATATCAGACTGGAGCCGTGCTAG	0.104
TCACCTTTATGTACTCTCACTGTGCTA	1.2
TCCCCTCCGGGACCCGCCTCGTGCTAG	-0.189
GACGGTTCCCTTTACCTGACGTGCTAG	4.86
GGCGATTCCAGTTTCGAGACGTGCTAG	2.96
TTAGGTCTCCTTCTCCTCTAGTGCTAG	4.19
CCACTGCAAAAACATCCTGGGTGCTAG	0.437

A few entries again (set 2):
Variant	normalised enrichment score
P1D	0.252
K2F	0.127
E12N	0.223
I11L	0.156
K6V	0.0559
K2T	0.0519
L4I	0.288
